# Assay results gathered from unrelated publications.
# Parts stem from different laboratories: compare values within a part only. Changes are numbered by the printed parent chain.
# Sequence of UniProt P31749 (whole entry, looked up): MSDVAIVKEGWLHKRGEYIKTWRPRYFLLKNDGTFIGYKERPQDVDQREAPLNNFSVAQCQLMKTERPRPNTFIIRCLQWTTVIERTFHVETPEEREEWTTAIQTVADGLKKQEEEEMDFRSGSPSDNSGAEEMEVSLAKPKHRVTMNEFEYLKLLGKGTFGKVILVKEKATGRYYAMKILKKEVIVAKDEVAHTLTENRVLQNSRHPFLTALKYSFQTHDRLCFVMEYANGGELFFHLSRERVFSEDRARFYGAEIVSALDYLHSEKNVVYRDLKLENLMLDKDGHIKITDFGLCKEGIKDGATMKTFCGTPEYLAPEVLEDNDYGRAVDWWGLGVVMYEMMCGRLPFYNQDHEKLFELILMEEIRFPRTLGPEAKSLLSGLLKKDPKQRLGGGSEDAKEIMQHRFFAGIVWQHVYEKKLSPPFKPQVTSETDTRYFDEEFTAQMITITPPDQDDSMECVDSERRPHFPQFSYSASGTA

# Block 1 — target: CCNB1, cyclin fold, Cln2 fusion (human); method: yeast growth competition, sequencing; medium: yeast; notes: strong parent motif; baseline: not given; reading: higher = stronger binding; parent: viral docking peptide; TSVRRALFTGGSD
Variant,normalised enrichment score
TSVRRALFTGVSD [G11V],2.29
TSVRRADFTGGSD [L7D],0.156
TSVRRALFKGGSD [T9K],1.2
TSVRRALFTRGSD [G10R],0.921
TSVRRGLFTGGSD [A6G],0.806
TSVRRALYTGGSD [F8Y],0.106
TSVRRALFYGGSD [T9Y],1.82
TSVRRALFEGGSD [T9E],2.04

# Block 2 — effect on: binding; method: phage display NGS; form: peptide; concentration: concentration not given; notes: panning round 2; baseline: input library
# Target: UDP-N-acetylglucosamine--peptide N-acetylglucosaminyltransferase 110 kDa subunit (OGT, Homo sapiens, UniProt O15294)
# Sequence of UniProt O15294 (whole entry, looked up): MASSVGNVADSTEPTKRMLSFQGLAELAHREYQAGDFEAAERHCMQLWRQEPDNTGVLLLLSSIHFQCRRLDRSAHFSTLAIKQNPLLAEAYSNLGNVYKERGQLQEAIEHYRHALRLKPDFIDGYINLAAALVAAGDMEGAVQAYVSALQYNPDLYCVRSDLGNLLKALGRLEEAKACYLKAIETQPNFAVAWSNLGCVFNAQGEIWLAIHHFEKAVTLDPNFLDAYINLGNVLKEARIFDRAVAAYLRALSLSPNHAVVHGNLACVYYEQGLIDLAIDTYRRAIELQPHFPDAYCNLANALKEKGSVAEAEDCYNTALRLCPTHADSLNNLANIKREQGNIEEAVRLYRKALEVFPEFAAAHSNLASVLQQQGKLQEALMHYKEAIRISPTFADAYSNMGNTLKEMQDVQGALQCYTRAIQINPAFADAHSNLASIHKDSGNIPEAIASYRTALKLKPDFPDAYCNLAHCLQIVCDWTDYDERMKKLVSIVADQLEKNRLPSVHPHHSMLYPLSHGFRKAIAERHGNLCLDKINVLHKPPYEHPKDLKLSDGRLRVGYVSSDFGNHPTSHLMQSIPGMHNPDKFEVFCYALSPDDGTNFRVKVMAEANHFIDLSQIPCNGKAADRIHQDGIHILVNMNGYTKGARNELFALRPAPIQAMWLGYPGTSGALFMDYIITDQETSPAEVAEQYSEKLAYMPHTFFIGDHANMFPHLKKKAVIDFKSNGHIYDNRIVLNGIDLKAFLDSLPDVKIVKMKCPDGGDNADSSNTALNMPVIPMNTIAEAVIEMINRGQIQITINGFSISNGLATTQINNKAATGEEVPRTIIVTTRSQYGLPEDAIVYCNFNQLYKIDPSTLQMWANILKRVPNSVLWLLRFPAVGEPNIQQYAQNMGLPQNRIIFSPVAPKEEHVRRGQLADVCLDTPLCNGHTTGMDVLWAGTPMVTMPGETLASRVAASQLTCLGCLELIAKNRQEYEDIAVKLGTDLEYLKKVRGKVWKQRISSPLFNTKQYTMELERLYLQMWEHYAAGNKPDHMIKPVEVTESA
Sequence,enrichment fold change
YEPMYLPQYQMIWNK,30
FNFTPYYQIAPGIRS,7.35
QQDIYPPHYLIELDI,6
NDMFAPKYQLTWREF,41.4
HAMHSHDSDHMTPYR,5.88
SIKGAKPKYQIEYVF,4
GFMPVYEIYFTRSDE,9.06
HMGMHQVLRIHQIHG,5.89

# Block 3 — target: tungstate, free oxyanion; method: microfluidic competitive inhibition; medium: in vitro, cell-free expressed; concentration: not given; reading: lower = stronger binding
# Notes: derived from inhibition constants, unchanged parent 2230 nM
# Parent: PafA, mature enzyme, eGFP fusion (Elizabethkingia meningoseptica, UniProt Q9KJX5); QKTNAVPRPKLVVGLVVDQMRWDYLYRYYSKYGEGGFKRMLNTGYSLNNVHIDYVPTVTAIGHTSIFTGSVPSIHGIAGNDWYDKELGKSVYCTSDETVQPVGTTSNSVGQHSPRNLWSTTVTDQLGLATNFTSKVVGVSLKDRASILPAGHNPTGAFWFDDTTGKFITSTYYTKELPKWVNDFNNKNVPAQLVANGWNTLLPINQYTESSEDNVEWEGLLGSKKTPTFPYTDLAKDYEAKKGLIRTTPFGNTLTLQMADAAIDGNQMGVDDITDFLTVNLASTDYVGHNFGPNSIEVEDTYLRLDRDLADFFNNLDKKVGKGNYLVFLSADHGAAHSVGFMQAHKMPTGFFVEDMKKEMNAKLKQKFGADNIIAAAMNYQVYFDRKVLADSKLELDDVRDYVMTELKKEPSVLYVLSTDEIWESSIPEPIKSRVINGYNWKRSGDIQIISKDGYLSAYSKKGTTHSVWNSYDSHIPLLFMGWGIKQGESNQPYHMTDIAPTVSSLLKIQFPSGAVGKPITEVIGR
Variant,oxyanion analog dissociation constant [nM]
P293V,2580
A310G,2290
A331V,2730
F384G,2420
S140G,2560
S490G,2320
V181G,1150
S505V,2530

# Other studies, line by line
SMILES,target,effect on,action,concentration,baseline,quantity,result
N/C(=N\[N+](=O)[O-])N/N=C\c1ccc(-c2cccc([N+](=O)[O-])c2)o1,"RAC-alpha serine/threonine-protein kinase (AKT1, Homo sapiens, UniProt P31749)",enzyme activity,inhibitor,0.5 µM,control,remaining activity,99.7%

# For quick reference, copied from above (block 3):
Variant,oxyanion analog dissociation constant [nM]
V181G,1150
S505V,2530
